Assay results pooled from the literature.
Several values in a cell are separate wells, animals, samples, runs or records. Numbers after ± are the reported error.
CASP8: Caspase-8 (CASP8, Homo sapiens, UniProt Q14790)
Chain of UniProt Q14790 (whole entry, looked up): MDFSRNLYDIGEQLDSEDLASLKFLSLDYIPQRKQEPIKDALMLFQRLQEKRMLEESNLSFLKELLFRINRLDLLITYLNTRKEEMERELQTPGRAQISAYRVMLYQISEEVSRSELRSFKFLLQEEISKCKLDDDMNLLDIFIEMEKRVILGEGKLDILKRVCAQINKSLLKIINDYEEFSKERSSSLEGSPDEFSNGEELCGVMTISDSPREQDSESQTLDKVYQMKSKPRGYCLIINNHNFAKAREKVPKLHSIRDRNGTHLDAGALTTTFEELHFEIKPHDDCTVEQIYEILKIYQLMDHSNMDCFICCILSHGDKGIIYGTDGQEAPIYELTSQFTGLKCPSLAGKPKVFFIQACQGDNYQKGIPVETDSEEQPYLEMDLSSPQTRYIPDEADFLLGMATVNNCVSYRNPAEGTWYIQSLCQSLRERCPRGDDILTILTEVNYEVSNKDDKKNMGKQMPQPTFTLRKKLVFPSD
DCPS: m7GpppX diphosphatase (DCPS, Homo sapiens, UniProt Q96C86)
Chain of UniProt Q92633 (whole entry, unmodified, looked up): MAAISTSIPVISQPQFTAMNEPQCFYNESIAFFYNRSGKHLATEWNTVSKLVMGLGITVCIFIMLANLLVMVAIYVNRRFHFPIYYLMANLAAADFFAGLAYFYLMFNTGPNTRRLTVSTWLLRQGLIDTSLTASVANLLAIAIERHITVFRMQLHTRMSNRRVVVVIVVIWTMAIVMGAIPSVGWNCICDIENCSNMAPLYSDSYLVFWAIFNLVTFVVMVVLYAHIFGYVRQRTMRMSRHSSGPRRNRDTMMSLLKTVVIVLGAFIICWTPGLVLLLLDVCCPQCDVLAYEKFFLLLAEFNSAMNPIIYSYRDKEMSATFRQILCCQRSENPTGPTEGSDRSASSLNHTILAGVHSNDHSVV
Chain of UniProt P46089 (whole entry, looked up): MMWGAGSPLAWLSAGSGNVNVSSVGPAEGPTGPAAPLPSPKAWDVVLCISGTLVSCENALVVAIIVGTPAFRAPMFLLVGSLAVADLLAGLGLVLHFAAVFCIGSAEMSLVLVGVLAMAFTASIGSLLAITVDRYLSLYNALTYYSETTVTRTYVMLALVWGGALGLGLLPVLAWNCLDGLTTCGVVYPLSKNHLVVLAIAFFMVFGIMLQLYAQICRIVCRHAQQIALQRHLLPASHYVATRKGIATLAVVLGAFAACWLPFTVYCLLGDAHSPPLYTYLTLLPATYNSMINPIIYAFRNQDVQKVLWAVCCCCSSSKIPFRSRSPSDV
Chain of UniProt Q96C86 (whole entry, looked up): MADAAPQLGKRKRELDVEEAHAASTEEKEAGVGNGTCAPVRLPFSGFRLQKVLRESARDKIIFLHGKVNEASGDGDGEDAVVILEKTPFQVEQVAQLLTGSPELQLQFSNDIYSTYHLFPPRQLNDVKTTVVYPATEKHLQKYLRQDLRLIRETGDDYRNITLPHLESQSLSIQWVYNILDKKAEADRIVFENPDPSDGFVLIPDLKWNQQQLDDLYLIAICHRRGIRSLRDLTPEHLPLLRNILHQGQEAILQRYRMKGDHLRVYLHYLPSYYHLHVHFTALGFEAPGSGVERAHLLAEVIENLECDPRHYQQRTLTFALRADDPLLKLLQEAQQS
Chain of UniProt Q13148 (whole entry, looked up): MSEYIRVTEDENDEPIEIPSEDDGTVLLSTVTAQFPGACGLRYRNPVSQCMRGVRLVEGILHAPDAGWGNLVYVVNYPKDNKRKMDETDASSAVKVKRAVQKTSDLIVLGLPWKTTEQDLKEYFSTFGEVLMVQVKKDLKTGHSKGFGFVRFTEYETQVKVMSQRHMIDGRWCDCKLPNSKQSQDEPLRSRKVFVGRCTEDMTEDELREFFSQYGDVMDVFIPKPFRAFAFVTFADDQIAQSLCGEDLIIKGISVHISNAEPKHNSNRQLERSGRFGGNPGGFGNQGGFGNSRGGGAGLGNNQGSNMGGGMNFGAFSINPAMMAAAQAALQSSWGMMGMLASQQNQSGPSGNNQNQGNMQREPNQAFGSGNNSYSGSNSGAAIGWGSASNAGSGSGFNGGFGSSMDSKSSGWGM
Chain of UniProt P02716 (whole entry, unmodified, looked up): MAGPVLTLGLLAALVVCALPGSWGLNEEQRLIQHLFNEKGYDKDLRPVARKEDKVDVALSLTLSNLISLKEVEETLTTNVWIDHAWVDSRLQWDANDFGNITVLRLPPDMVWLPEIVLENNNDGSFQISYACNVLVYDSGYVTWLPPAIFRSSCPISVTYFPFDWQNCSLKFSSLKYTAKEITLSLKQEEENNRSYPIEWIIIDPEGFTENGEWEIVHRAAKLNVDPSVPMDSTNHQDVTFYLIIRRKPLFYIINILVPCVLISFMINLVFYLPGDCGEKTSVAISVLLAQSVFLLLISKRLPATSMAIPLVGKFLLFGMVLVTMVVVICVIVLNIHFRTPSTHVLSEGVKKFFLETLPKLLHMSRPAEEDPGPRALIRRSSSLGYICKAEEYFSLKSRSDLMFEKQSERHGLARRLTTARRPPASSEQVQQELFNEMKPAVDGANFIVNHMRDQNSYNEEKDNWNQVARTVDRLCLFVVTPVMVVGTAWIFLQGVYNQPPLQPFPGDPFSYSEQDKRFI
Chain of UniProt P45983 (whole entry, looked up): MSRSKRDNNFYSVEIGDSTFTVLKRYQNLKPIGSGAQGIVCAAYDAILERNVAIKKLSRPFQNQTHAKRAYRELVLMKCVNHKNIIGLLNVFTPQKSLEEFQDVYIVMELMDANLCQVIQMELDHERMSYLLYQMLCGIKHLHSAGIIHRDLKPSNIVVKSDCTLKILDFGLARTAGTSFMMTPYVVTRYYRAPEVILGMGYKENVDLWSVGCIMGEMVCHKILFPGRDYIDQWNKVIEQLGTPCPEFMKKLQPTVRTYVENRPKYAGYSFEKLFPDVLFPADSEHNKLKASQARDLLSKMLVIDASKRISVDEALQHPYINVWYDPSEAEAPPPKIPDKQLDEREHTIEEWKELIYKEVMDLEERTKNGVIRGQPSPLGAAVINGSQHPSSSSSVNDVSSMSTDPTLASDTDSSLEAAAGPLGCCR
Chain of UniProt P08191 (whole entry, unmodified, looked up): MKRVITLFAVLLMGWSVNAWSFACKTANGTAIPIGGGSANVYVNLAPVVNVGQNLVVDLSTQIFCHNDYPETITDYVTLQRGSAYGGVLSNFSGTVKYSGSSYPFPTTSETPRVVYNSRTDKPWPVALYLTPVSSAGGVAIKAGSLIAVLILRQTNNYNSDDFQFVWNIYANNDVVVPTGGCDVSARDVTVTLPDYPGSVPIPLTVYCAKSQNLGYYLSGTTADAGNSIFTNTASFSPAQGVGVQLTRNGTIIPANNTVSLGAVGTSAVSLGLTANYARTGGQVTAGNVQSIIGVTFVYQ
Chain of UniProt P20782 (whole entry, unmodified, looked up): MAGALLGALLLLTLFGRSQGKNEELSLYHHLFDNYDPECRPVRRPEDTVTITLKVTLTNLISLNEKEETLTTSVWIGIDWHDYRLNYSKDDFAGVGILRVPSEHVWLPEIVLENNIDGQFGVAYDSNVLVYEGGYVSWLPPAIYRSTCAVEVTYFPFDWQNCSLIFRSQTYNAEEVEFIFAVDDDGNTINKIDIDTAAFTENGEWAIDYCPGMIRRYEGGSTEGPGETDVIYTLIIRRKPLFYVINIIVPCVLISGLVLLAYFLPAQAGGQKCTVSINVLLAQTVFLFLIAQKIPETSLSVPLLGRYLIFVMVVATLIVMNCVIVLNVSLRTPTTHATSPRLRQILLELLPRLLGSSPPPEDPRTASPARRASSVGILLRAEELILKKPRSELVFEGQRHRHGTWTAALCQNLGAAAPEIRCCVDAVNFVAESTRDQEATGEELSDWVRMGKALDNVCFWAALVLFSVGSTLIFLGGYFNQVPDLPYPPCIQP
Chain of UniProt P11387 (whole entry, looked up): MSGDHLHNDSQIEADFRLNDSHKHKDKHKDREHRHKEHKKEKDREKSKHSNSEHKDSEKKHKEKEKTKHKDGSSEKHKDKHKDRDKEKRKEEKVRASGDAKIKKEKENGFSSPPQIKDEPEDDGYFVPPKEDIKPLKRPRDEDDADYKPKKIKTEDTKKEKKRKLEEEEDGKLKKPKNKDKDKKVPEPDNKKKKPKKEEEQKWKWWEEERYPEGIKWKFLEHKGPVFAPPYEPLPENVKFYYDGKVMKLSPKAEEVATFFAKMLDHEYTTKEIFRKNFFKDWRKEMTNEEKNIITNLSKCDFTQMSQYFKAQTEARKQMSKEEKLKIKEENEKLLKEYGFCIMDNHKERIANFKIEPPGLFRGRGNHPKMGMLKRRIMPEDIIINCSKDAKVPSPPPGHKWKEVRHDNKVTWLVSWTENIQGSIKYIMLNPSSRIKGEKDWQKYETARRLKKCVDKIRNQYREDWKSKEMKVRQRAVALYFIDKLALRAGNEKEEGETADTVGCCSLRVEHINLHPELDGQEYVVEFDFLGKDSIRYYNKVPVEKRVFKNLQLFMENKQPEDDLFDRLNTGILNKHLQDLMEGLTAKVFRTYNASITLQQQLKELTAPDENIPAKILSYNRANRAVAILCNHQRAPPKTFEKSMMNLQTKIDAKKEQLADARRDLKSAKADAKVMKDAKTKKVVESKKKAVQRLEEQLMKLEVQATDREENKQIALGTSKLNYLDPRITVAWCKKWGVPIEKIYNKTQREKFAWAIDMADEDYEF
Chain of UniProt P04756 (whole entry, unmodified, looked up): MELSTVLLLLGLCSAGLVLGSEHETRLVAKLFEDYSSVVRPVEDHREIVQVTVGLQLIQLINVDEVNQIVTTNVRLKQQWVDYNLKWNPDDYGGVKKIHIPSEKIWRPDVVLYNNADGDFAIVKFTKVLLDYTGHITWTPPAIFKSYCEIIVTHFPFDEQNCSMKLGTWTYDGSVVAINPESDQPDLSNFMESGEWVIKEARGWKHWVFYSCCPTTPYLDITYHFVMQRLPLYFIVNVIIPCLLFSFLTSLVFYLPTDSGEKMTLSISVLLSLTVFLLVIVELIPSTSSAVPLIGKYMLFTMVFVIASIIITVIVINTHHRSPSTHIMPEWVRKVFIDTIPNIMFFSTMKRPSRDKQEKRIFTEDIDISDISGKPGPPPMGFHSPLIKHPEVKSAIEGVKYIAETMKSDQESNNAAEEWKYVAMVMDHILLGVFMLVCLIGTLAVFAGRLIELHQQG

SMILES = CCCCCCCO[C@H]1CO[C@H](CO)[C@@H](O)[C@H](O)[C@@H]1O; target = Type 1 fimbrin D-mannose specific adhesin, lectin domain (fimH, Escherichia coli K-12, UniProt P08191); test = binding, isothermal titration calorimetry; conditions = 37 °C, global fit of two titrations; measurement = -TΔS; value = 5.54 kcal/mol
SMILES = CC(=O)N[C@H](CCc1ccccc1)C(=O)N[C@@H](CCCC(=O)O)C(=O)N1C[C@H](O)C[C@H]1C(=O)N[C@@H](CC(=O)O)C(=O)COC(=O)c1c(C)cccc1C; target = CASP8; test = enzyme activity, inhibitor; measurement = kinact/KI; value = 890000 M⁻¹ s⁻¹
SMILES = C[N+]1(C)CCCC1; target = Chrnd/Chrna1/Chrne (Mus musculus, UniProt P02716+P04756+P20782, G173A/S470W); test = binding, agonist, single-channel recording; conditions = binding site chain A side; measurement = kon; value = 1.49e+07 M⁻¹ s⁻¹
SMILES = COC(=O)[C@@]1(C)C=C(C(=O)Nc2cccc(C(=O)Nc3ccc(Nc4nccc(-c5cccnc5)n4)c(C)c3)c2)C(=O)CC1; target = MAPK1 (Homo sapiens, UniProt P28482); test = kinase activity, inhibitor; conditions = 0.5487 µM, unit not given; how to read = relative to: no inhibitor; measurement = remaining activity; value = 0.926
SMILES = CC(C)Oc1cc(Cl)ccc1CNc1cc(-c2ccccc2)nc2ncnn12; target = GPR3 (Homo sapiens, UniProt P46089); test = cAMP reporter; test system = human cells; conditions = 3 µM; how to read = higher is more cAMP; measurement = cAMP luminescence; value = 3590 a.u. and 5440 a.u. and 2200 a.u. and 4180 a.u. and 6570 a.u. and 6940 a.u. and 3530 a.u.
SMILES = CCCCCC(O)/C=C/C=O (stereo not shown); target = S-formylglutathione hydrolase (Homo sapiens, UniProt P10768); test = acylphosphate-ATP probe SILAC-ABPP, refers to: ESD; test system = ZAK-transfected HEK293T; conditions = 100 µM, together with: acylphosphate-ATP probe; how to read = relative to: DMSO over compound-treated; measurement = probe labelling ratio; value = 0.61
SMILES = Cc1cn(CC(=O)N(CC(=O)N[C@H]2COC[C@@H]2N(CC(=O)NCCOCCOCC(N)=O)C(=O)Cn2cnc3c(N)ncnc32)[C@H]2COC[C@@H]2NC(=O)CN(C(=O)Cn2cnc3c(N)ncnc32)[C@H]2COC[C@@H]2NC(=O)CN(C(=O)Cn2cnc3c(=O)[nH]c(N)nc32)[C@H]2COC[C@@H]2NC(=O)CN(C(=O)Cn2cc(C)c(=O)[nH]c2=O)[C@H]2COC[C@@H]2NC(=O)CN(C(=O)Cn2cnc3c(=O)[nH]c(N)nc32)[C@H]2COC[C@@H]2NC(=O)CN(C(=O)Cn2cc(C)c(=O)[nH]c2=O)[C@H]2COC[C@@H]2NC(=O)CN(C(=O)Cn2cnc3c(N)ncnc32)[C@H]2COC[C@@H]2NC(=O)CN(C(=O)Cn2cnc3c(=O)[nH]c(N)nc32)[C@H]2COC[C@@H]2N)c(=O)[nH]c1=O; target = complementary DNA; test = duplex formation, UV melting curve fit; test system = PBS; conditions = 1 µM, fit parameter α 0.5; measurement = Tm; value = 76.1 ± 0.3 °C
SMILES = CC[C@H](NC(=O)[C@H](CC(C)C)NC(C)=O)C(=O)N[C@@H](CCC1CCCCC1)C(=O)N[C@@H](CC(=O)O)C(=O)COC(=O)c1c(C)cccc1C; target = CASP8; test = enzyme activity, inhibitor; measurement = kinact/KI; value = 2.35e+06 M⁻¹ s⁻¹
SMILES = C#CCOC(=O)[C@]1(C)C=C(C(=O)OC(C)(C)C)C(=O)CC1; target = MAPK8 (Homo sapiens, UniProt P45983); test = enzyme activity, D-SENSOR; conditions = 4.938 µM, mean of replicates; measurement = normalized kinase activity; value = 0.967
SMILES = O=C1c2sc(-c3ccc(N4CCC(F)C4)nc3F)nc2CCN1c1cccnc1 (stereo not shown); target = TAR DNA-binding protein 43, aggregated (TARDBP, Homo sapiens, UniProt Q13148); test = radioligand binding; test system = homogenate, FTLD-TDP, type A; conditions = 2000 nM, together with: [3H]ACI-19626; measurement = inhibition; value = 99.1% and 95.6%
SMILES = C[Si]1(C[C@H](CN)CC(=O)O)CCCC1; target = ADORA2B (Homo sapiens, UniProt P29275); test = ligand displacement, radioligand; conditions = 70 µM; measurement = inhibition; value = 0%
SMILES = C1=[N+]2CCC[N+]3=Cc4ccc5[n]4[Au-]23[n]2c1ccc2-c1nc2ccccc2nc1-5.F[P-](F)(F)(F)(F)F; target = DNA topoisomerase 1 (TOP1, Homo sapiens, UniProt P11387); measurement = Hill coefficient; value = 1.4
SMILES = N#Cc1cnc2sc(C(=O)O)cc2c1N1CCc2[nH]nc(C(=O)N[C@@H](CC(=O)NCCOCCN3CCOCC3)c3cccc(Br)c3)c2C1; target = Interleukin-1 receptor-like 2 (IL1RL2, Homo sapiens, UniProt Q9HB29); test = reporter gene (SEAP), inhibitor, HEK-Blue IL-36R reporter; test system = HEK-Blue IL-36R cells; conditions = 0.046 µM, 6 h, together with: IL36A 0.01 ng/mL; measurement = remaining activity; value = 95.3%
SMILES = N=C(N)NCCS(=O)(=O)O; target = SLC6A6 (Homo sapiens, UniProt P31641, G62A); test = binding, microscale thermophoresis; conditions = 250 µM, room temperature, together with: 50 nM labelled protein; how to read = higher = more binding; measurement = normalised MST signal; value = -0.00752
SMILES = CCN(CC)C(CO)c1cccc2c(C)c(C)oc12 (stereo not shown); target = LPAR1 (Homo sapiens, UniProt Q92633, W210A); test = G-protein dissociation, agonist, NanoBiT; test system = HEK-293T; conditions = 100 nM, W210A mutant; how to read = relative to: baseline luminescence; measurement = fold change; value = 0.795 and 0.989 and 0.966 and 0.855 and 0.823 and 0.769
SMILES = CC(=O)N[C@H](C(=O)N[C@@H](CCCCN)C(=O)N[C@@H](CCC(N)=O)C(=O)N[C@@H](CC(=O)O)C(=O)COC(=O)c1c(C)cccc1C)C(C)C; target = Caspase-10 (CASP10, Homo sapiens, UniProt Q92851); test = enzyme activity, inhibitor; measurement = kinact/KI; value = 55000 M⁻¹ s⁻¹
SMILES = C[n+]1cn([C@@H]2O[C@H](COP(=O)([O-])OP(=O)(O)CP(=O)(O)OP(=O)(O)OC[C@H]3O[C@@H](n4cnc5c(=O)[nH]c(N)nc54)[C@H](O)[C@@H]3O)[C@@H](O)[C@H]2O)c2nc(N)nc(O)c21; target = DCPS; test = substrate, HPLC; conditions = concentration not given, 120 min; measurement = hydrolysis; value = 0%
SMILES = CCN1CCN(Cc2ccc(C(=O)Nc3ccc(C)c(NCc4cnc5[nH]ccc5c4OC)c3)cc2C(F)(F)F)CC1; target = Tyrosine-protein kinase ABL1, phosphorylated (ABL1, Homo sapiens, UniProt P00519, Q252H); test = binding, competition with immobilised ligand; conditions = 1 µM; measurement = remaining binding; value = 1.6%
SMILES = CO[C@@H]1[C@H](O)[C@@H](COP(=O)(O)OP(=O)([O-])C(Cl)(Cl)P(=O)(O)OP(=O)(O)OC[C@H]2O[C@@H](n3cnc4c(=O)[nH]c(N)nc43)[C@H](O)[C@@H]2O)O[C@H]1n1c[n+](C)c2c(O)nc(N)nc21; target = DCPS; test = substrate, HPLC; conditions = concentration not given, 15 min; measurement = hydrolysis; value = 0%
SMILES = CCCCCCCCCCCCC/C=C/C=O; target = Exportin-2 (Homo sapiens, UniProt P55060); test = competitive isoTOP-ABPP, refers to: CSE1L cysteine peptide; test system = Ramos soluble proteome; conditions = 100 µM, together with: iodoacetamide probe; how to read = relative to: DMSO over compound-treated, higher = stronger cysteine blockade; measurement = isoTOP-ABPP competition ratio; value = 1
SMILES = O=c1cc(Nc2ccccc2)c2ccccc2o1; target = ADRA1A (Homo sapiens, UniProt P35348); test = intracellular Ca2+ mobilization, agonist; test system = COS-7; conditions = 500 µM; how to read = relative to: 3 µM ionomycin; measurement = agonist activity; value = 4.44 ± 2.84%
SMILES = N=C(N)NCCC[C@H](NC(=O)[C@@H]1CCCN1C(=O)[C@H](CCCNC(=N)N)NC(=O)[C@@H]1CCCN1C(=O)[C@H](CCCNC(=N)N)NC(=O)[C@@H]1CCCN1C(=O)[C@H](CCCNC(=N)N)NC(=O)[C@@H]1CCCN1C(=O)[C@H](CCCNC(=N)N)NC(=O)[C@@H]1CCCN1C(=O)[C@H](CCCNC(=N)N)NC(=O)[C@@H]1CCCN1C(=O)[C@H](CCCNC(=N)N)NC(=O)[C@@H]1CCCN1C(=O)[C@H](CCCNC(=N)N)NC(=O)[C@@H]1CCCN1C(=O)[C@H](CCCNC(=N)N)NC(=O)[C@@H]1CCCN1C(=O)[C@H](CCCNC(=N)N)NC(=O)[C@@H]1CCCN1C(=O)[C@H](CCCNC(=N)N)NC(=O)[C@@H]1CCCN1C(=O)[C@H](CCCNC(=N)N)NC(=O)[C@@H]1CCCN1C(=O)[C@H](CCCNC(=N)N)NC(=O)[C@@H]1CCCN1C(=O)[C@H](CCCNC(=N)N)NC(=O)[C@@H]1CCCN1C(=O)[C@H](CCCNC(=N)N)NC(=O)[C@@H]1CCCN1C(=O)[C@H](CCCNC(=N)N)NC(=O)[C@@H]1CCCN1C(=O)[C@H](CCCNC(=N)N)NC(=O)[C@@H]1CCCN1C(=O)[C@H](CCCNC(=N)N)NC(=O)[C@@H]1CCCN1C(=O)[C@H](CCCNC(=N)N)NC(=O)[C@@H]1CCCN1C(=O)[C@H](CCCNC(=N)N)NC(=O)[C@@H]1CCCN1C(=O)[C@H](CCCNC(=N)N)NC(=O)[C@@H]1CCCN1C(=O)[C@H](CCCNC(=N)N)NC(=O)[C@@H]1CCCN1C(=O)[C@H](CCCNC(=N)N)NC(=O)[C@@H]1CCCN1C(=O)[C@H](Cc1ccc(O)cc1)NC(=O)[C@H](CO)NC(=O)CN)C(=O)O; target = Nucleophosmin (NPM1, Homo sapiens, UniProt P06748); test = SANS Guinier analysis; conditions = 3 molar excess over NPM1, 25 °C; measurement = radius of gyration; value = 97.9 ± 6.08 Å

Some of these lines once more:
SMILES = C[n+]1cn([C@@H]2O[C@H](COP(=O)([O-])OP(=O)(O)CP(=O)(O)OP(=O)(O)OC[C@H]3O[C@@H](n4cnc5c(=O)[nH]c(N)nc54)[C@H](O)[C@@H]3O)[C@@H](O)[C@H]2O)c2nc(N)nc(O)c21; target = DCPS; test = substrate, HPLC; conditions = concentration not given, 120 min; measurement = hydrolysis; value = 0%
SMILES = CCN1CCN(Cc2ccc(C(=O)Nc3ccc(C)c(NCc4cnc5[nH]ccc5c4OC)c3)cc2C(F)(F)F)CC1; target = Tyrosine-protein kinase ABL1, phosphorylated (ABL1, Homo sapiens, UniProt P00519, Q252H); test = binding, competition with immobilised ligand; conditions = 1 µM; measurement = remaining binding; value = 1.6%
SMILES = CO[C@@H]1[C@H](O)[C@@H](COP(=O)(O)OP(=O)([O-])C(Cl)(Cl)P(=O)(O)OP(=O)(O)OC[C@H]2O[C@@H](n3cnc4c(=O)[nH]c(N)nc43)[C@H](O)[C@@H]2O)O[C@H]1n1c[n+](C)c2c(O)nc(N)nc21; target = DCPS; test = substrate, HPLC; conditions = concentration not given, 15 min; measurement = hydrolysis; value = 0%
SMILES = CCCCCCCCCCCCC/C=C/C=O; target = Exportin-2 (Homo sapiens, UniProt P55060); test = competitive isoTOP-ABPP, refers to: CSE1L cysteine peptide; test system = Ramos soluble proteome; conditions = 100 µM, together with: iodoacetamide probe; how to read = relative to: DMSO over compound-treated, higher = stronger cysteine blockade; measurement = isoTOP-ABPP competition ratio; value = 1
